Published values pooled from the literature.
Values joined by “and” are separate records of one study, mostly repeats; a detail may differ. ± marks the error that the study gave.
TOP2A: DNA topoisomerase 2-alpha (TOP2A, Homo sapiens, UniProt P11388)
Sequence of UniProt P11388 (whole entry, looked up): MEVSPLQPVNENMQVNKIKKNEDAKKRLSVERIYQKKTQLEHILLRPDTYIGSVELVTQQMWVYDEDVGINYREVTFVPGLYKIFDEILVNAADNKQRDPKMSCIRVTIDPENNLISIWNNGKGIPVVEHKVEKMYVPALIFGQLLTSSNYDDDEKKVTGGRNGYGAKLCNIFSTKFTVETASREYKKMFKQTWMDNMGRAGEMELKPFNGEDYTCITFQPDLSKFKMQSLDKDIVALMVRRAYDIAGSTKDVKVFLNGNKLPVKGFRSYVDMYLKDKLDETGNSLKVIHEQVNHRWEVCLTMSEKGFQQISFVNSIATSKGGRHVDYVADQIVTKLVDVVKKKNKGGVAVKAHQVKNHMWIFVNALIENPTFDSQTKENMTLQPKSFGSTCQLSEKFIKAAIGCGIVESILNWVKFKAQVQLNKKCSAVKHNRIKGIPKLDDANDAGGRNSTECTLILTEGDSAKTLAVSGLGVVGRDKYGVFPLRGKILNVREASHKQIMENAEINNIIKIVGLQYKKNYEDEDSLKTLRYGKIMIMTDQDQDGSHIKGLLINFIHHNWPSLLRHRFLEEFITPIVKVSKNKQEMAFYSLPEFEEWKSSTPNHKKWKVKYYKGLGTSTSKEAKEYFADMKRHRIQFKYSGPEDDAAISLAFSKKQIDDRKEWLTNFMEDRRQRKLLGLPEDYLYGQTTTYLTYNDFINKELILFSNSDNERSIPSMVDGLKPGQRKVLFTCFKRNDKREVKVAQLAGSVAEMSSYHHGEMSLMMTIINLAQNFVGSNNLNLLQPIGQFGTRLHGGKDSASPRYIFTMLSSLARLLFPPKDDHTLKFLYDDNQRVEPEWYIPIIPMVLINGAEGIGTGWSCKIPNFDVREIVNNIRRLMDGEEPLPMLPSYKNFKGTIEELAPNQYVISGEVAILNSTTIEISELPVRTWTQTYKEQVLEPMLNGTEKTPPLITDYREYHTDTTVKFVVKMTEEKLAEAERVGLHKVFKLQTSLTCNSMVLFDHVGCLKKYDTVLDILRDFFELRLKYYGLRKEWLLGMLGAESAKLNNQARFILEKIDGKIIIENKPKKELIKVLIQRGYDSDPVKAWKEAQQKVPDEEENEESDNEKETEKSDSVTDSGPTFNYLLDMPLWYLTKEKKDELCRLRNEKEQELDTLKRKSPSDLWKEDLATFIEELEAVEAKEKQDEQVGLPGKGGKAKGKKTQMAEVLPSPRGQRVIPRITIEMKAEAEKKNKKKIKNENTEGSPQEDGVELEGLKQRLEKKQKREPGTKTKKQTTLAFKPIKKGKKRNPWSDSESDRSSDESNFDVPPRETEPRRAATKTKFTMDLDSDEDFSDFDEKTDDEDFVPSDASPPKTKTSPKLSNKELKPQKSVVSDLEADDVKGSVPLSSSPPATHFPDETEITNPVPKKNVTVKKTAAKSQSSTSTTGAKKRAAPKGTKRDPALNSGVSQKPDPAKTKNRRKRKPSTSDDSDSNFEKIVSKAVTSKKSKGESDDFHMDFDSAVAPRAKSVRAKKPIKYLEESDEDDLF
ATP2A2: ATP2A2 (Sus scrofa, UniProt P11607)
Sequence of UniProt P11607 (whole entry, looked up): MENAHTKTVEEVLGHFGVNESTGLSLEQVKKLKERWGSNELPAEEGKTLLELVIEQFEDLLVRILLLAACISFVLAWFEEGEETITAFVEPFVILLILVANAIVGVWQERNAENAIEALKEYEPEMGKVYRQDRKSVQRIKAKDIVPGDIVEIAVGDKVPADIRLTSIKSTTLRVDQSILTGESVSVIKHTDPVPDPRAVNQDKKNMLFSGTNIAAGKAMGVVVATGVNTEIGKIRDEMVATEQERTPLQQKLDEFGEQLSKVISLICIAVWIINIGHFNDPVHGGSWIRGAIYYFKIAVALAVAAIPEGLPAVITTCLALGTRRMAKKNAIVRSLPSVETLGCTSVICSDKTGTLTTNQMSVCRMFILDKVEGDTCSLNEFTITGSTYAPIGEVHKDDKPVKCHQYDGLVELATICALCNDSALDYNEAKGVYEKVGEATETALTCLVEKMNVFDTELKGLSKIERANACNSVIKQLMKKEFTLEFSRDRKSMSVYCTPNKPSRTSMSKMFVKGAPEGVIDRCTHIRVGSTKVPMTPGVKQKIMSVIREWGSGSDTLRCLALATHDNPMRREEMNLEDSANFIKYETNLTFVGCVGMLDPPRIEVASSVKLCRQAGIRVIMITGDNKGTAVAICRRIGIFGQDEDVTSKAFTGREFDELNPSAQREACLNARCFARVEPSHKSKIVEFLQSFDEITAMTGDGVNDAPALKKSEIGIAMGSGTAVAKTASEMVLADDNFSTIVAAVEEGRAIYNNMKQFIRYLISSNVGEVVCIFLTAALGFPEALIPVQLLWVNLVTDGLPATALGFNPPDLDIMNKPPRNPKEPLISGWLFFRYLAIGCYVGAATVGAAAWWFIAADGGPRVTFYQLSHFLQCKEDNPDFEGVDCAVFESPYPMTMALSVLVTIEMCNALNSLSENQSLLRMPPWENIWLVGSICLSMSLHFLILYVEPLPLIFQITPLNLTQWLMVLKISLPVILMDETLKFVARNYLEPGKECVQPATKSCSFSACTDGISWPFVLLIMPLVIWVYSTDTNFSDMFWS
PDE2A: cGMP-dependent 3',5'-cyclic phosphodiesterase (PDE2A, Homo sapiens, UniProt O00408)
Sequence of UniProt O00408 (whole entry, looked up): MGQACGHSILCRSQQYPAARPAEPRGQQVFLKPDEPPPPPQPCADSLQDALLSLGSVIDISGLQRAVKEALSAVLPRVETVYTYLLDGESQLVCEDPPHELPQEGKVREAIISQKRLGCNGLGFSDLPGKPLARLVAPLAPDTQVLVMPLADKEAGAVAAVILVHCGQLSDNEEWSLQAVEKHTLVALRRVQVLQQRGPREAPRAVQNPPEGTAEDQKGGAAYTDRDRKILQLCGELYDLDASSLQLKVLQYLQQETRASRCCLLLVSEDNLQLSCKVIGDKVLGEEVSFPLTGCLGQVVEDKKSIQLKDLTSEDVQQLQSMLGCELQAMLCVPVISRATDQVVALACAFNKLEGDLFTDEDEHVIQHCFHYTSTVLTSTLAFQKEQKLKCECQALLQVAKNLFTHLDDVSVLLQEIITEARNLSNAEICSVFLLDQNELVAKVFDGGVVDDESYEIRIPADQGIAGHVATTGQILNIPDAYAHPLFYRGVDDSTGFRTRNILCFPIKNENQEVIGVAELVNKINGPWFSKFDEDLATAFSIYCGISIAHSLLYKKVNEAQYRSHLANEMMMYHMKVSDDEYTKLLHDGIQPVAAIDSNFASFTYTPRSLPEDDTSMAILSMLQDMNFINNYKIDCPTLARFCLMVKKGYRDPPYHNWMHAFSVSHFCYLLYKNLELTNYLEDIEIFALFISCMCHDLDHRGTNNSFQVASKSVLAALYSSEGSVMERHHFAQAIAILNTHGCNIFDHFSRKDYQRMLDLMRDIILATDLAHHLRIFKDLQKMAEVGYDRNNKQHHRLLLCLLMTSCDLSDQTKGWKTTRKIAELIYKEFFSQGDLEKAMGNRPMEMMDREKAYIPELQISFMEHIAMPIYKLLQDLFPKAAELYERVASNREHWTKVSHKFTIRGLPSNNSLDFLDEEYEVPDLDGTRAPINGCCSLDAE
DDB1: DNA damage-binding protein 1 (DDB1, Homo sapiens, UniProt Q16531)
BEST2: Bestrophin-2a (BEST2, Homo sapiens, UniProt Q8NFU1)
Sequence of UniProt Q8NFU1 (whole entry, looked up): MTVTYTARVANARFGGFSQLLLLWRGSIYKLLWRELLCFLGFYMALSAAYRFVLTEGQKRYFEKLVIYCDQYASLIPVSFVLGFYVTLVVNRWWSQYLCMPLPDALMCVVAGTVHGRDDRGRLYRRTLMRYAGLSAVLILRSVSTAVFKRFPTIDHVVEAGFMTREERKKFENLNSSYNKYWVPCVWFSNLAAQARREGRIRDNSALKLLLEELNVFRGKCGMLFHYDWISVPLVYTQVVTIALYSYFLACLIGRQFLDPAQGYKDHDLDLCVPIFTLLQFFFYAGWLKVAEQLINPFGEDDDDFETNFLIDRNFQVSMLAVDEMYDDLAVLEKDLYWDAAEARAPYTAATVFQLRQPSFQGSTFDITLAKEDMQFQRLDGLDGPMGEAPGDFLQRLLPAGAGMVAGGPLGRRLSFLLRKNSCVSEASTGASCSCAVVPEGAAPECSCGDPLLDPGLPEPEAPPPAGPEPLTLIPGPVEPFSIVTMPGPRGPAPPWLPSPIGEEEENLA
T1: G-quadruplex RNA (Homo sapiens); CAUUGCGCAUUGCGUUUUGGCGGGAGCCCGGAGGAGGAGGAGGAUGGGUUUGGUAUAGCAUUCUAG
T2: G-quadruplex RNA (Caenorhabditis elegans); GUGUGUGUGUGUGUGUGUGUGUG
Sequence of UniProt Q7TMS5 (whole entry, unmodified, looked up): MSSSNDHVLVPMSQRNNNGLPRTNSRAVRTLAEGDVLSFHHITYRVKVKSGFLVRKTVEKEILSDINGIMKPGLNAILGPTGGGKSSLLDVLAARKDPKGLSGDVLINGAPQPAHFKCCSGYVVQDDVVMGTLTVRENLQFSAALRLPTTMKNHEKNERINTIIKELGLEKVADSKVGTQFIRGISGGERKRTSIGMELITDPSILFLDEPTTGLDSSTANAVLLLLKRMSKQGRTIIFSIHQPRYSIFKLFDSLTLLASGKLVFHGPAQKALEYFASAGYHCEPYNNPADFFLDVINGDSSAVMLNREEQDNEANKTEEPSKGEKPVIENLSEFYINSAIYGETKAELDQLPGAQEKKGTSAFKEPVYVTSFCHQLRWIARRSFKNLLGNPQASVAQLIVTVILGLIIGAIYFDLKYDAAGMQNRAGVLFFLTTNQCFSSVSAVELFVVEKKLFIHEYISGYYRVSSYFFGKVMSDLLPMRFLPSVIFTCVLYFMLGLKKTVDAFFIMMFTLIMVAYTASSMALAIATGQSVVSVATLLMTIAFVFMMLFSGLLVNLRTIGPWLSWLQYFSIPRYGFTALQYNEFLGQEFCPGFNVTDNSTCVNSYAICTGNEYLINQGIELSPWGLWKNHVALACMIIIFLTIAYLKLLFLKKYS
Sequence of UniProt Q9NZQ7 (whole entry, looked up): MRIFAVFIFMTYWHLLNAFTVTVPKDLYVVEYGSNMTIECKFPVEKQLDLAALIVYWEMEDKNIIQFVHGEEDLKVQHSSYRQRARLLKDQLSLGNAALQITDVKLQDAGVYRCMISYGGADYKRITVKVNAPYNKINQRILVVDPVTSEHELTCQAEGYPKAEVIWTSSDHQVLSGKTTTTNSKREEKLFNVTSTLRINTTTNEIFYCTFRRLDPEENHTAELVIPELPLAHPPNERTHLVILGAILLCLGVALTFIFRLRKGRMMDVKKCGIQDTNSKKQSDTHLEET

O=c1cc(-c2ccc(OS(=O)(=O)[O-])cc2)oc2cc(OS(=O)(=O)[O-])cc(OCc3cccc(COc4cc(OS(=O)(=O)[O-])cc5oc(-c6ccc(OS(=O)(=O)[O-])cc6)cc(=O)c45)n3)c12.[Na+].[Na+].[Na+].[Na+]  Hill slope (Neutrophil elastase (ELANE, Homo sapiens, UniProt P08246); enzyme activity, inhibitor; added: chromogenic substrate): 1.7
CC(=O)/N=c1/sc(S(N)(=O)=O)nn1C  intrinsic binding TΔS (Carbonic anhydrase 4 (CA4, Homo sapiens, UniProt P22748); ITC; concentration not given, 25 °C): 13 kJ/mol
CCOCc1nc(O)c(-c2nnc(Cc3ccc(Cl)cn3)o2)c(O)c1-c1c(OC)cccc1OC  Emax (Apelin receptor (APLNR, Homo sapiens, UniProt P35414); Gαi3 activation, agonist, BRET biosensor; HEK293): 115 ± 18%
CC1CCCN(C(=O)c2cc3ncccn3n2)C1 (centres unmarked)  fold enrichment (Histone-lysine N-methyltransferase SETDB1, triple tudor domain (SETDB1, Homo sapiens, UniProt Q15047); binding, affinity selection mass spectrometry; reference: other proteins in batch): 0.596
O=c1nc(SCc2cc(F)cc(C(F)(F)F)c2)nc(SCc2ccc3ccccc3n2)[nH]1  decatenated DNA (TOP2A; decatenation; 7.8 µM, replicate 1): 100%
c1ccc(CCCCCOCCc2ccc3[nH]cnc3c2)cc1  concentration of maximal activation (ATP2A2; ATPase activity): 10 µM
C[C@@H](O)[C@H](NC(=O)[C@H](Cc1ccc(O)cc1)NC(=O)[C@H](Cc1ccc(O)cc1)NC(=O)[C@H](CO)NC(=O)[C@H](CCCNC(=N)N)NC(=O)[C@H](Cc1c[nH]cn1)NC(=O)[C@@H](N)Cc1c[nH]c2ccccc12)C(=O)N[C@@H](Cc1c[nH]c2ccccc12)C(=O)N[C@@H](CC(N)=O)C(=O)NCCCC[C@H](NC(=O)[C@H](CCCCNC(=O)[C@H](CC(N)=O)NC(=O)[C@H](Cc1c[nH]c2ccccc12)NC(=O)[C@@H](NC(=O)[C@H](Cc1ccc(O)cc1)NC(=O)[C@H](Cc1ccc(O)cc1)NC(=O)[C@H](CO)NC(=O)[C@H](CCCNC(=N)N)NC(=O)[C@H](Cc1c[nH]cn1)NC(=O)[C@@H](N)Cc1c[nH]c2ccccc12)[C@@H](C)O)NC(=O)[C@H](CC(N)=O)NC(=O)[C@H](Cc1c[nH]c2ccccc12)NC(=O)[C@@H](NC(=O)[C@H](Cc1ccc(O)cc1)NC(=O)[C@H](Cc1ccc(O)cc1)NC(=O)[C@H](CO)NC(=O)[C@H](CCCNC(=N)N)NC(=O)[C@H](Cc1c[nH]cn1)NC(=O)[C@@H](N)Cc1c[nH]c2ccccc12)[C@@H](C)O)C(=O)N[C@@H](CCCCN)C(=O)N[C@@H](CCCCN)C(N)=O  fold reduction of blocking (Programmed cell death 1 ligand 1, with PD-1 (CD274, Homo sapiens, UniProt Q9NZQ7); PD-1 binding, inhibitor, competitive ELISA; 2.5 µM; reference: PBS over 2% BSA): 1.4 fold
Oc1ccccc1-c1n[nH]cc1-c1ccnc2ccccc12  log2 fold change (Casein kinase I HRR25 (Candida albicans, UniProt Q59S64); kinase binding, MIB/MS competition; Candida albicans lysate; 1 µM; reference: DMSO, negative = stronger binding): 0.1
COc1ncc(CNc2c(CO)cnc3c(C4CC4)cc(C#N)cc23)cc1Cl  selectivity ratio (PDE2A; reference: IC50 PDE2A over PDE5): > 10
O=c1nc(SCc2cc(F)cc(C(F)(F)F)c2)nc(SCc2csc3ccc(Cl)cc23)[nH]1  relaxed DNA (TOP2A; DNA relaxation; 7.8 µM, replicate 2): 75.6%
C=CC(=O)c1ccc2ccccc2c1  inhibition after dialysis (Protein-glutamine gamma-glutamyltransferase (TGM2, Homo sapiens, UniProt P21980); enzyme activity, inhibitor; concentration not given, reversibility, without calcium): > 90%
N#Cc1ccc(C[C@@H](NC(=O)c2cc3ccccc3[nH]2)C(=O)N2CCc3ccccc32)cc1  agonist activity (fMet-Leu-Phe receptor (FPR1, Homo sapiens, UniProt P21462); calcium mobilization, agonist; HL-60; concentration not given): inactive
O=c1nc(SCc2cc(F)cc(C(F)(F)F)c2)nc(SCc2ccc3nc(Cl)ccc3c2)[nH]1  mean decatenated DNA (TOP2A; decatenation; 15.6 µM): 25.8%
C(/C=C/c1sc2c3ccccc3ccc2[n+]1CCCc1ccccc1)=C1/Sc2c(ccc3ccccc23)N1CCCc1ccccc1.[I-]  Hill coefficient (Protein arginine N-methyltransferase 6 (PRMT6, Homo sapiens, UniProt Q96LA8); inhibitor, filter binding; added: R4 peptide substrate): 0.99
O=c1ccc2nc3ccc(O[C@@H]4O[C@H](CO)[C@@H](O)[C@H](O)[C@H]4O)cc3oc-2c1  Vmax/Km (Lysosomal acid glucosylceramidase (GBA1, Homo sapiens, UniProt P04062, R534H); substrate): 1.4 pmol/min/µM
O=c1nc(SCc2cc(F)cc(C(F)(F)F)c2)nc(SCc2ccc3ncsc3c2)[nH]1  mean decatenated DNA (TOP2A; decatenation; 31.25 µM): 62.7%
CN(Cc1cnc2nc(N)nc(N)c2n1)c1ccc(C(=O)N[C@@H](CCC(=O)O)C(=O)O)cc1  uptake (Proton-coupled folate transporter (Homo sapiens, UniProt Q96NT5, S250A); cells transfected with S250A mutant; 2 min, pH 5.5, 37 °C): 15%
CC[C@@H]1[C@H](F)C(=O)N[C@@H]1COc1nccc2cc(C(N)=O)c(OC)cc12  inhibition (Phosphatidylinositol 4-kinase beta (PI4KB, Homo sapiens, UniProt Q9UBF8); ATP-site probe binding, ActivX profiling; THP-1 cell lysate; 0.01 mM): 1.7%
COc1ccc(C(=O)/C=C/c2cccc(-c3cccc(-c4ccc(CNCCO)c(OC)n4)c3C)c2)cc1  degradation (Programmed cell death 1 ligand 1 (CD274, Homo sapiens, UniProt Q9NZQ7); degrader, western blot; HL-60; 1 µM): < 5%
Oc1ccc(/C=C/c2cc(O)cc(O)c2)cc1  binding stoichiometry (O-methyltransferase (Sorghum bicolor, UniProt A0A1B6PFV1); ITC; concentration not given, added: ADN+): 0.7 ± 0.005
CCOc1cccc(C2CC(=O)Nc3c2c(C)nn3-c2ccc3nncn3n2)c1 (centres unmarked)  SPR response (DDB1; binding, surface plasmon resonance; 7.5 µM): 6.04 RU
CC(=C/C(=O)O)/C=C/C=C(\C)C1C=C2C(C)(C)CCCC2(C)O1 (centres unmarked)  Pearson correlation coefficient (Rhodopsin (RHO, Homo sapiens, UniProt P08100, T17M); ER retention, immunostaining co-localization, refers to: opsin with calnexin; COS-7 transfected T17M; 5.00 µM): 0.67
NCCCCC(=O)O  normalised MST signal (Sodium- and chloride-dependent taurine transporter (SLC6A6, Homo sapiens, UniProt P31641, Y138A); binding, microscale thermophoresis; 15.6 µM, room temperature, added: 50 nM labelled protein; higher = more binding): -0.0202
O=C(c1ccc(Nc2nccc(-c3cc4ccccc4s3)n2)cc1)N1CCC(N2CCCC2)CC1  Hill slope (Serine/threonine-protein kinase N1 (PKN1, Homo sapiens, UniProt Q16512); inhibitor): -0.773
O=c1nc(SCc2ccc(C(F)(F)F)cc2)nc(SCc2ccc3sccc3c2)[nH]1  decatenated DNA (TOP2A; decatenation; 125 µM, replicate 1): 0.17%
Cc1cccc(N2CC(C(=O)O)CC2=O)c1 (centres unmarked)  fold enrichment (DDB1; binding, affinity selection mass spectrometry; reference: other proteins in batch): 1.05
N.N.[Cl-].[Cl-].[Pt+2]  binding (T1, G-quadruplex RNA (Homo sapiens); optical tweezers unfolding; KCl 100 mM, preformed rG4, covalent, added: cisplatin): binds
COc1cccc2c(-c3ccc(C)cc3)cc(C(=O)Nc3ccc(C(=O)O)cc3)nc12  antagonist activity (Retinoic acid receptor alpha (RARA, Homo sapiens, UniProt P10276); transactivation, antagonist, reporter gene; up to 3300 nM, added: 9-cis-retinoic acid at EC80, 180 nM): inactive
COc1cc(C(=O)NS(=O)(=O)c2ccccc2C)ccc1Cc1cn(C)c2ccc(NC(=O)OC3CCCC3)cc12  Hill coefficient (LRRC8A/LRRC8C (Homo sapiens, UniProt Q8IWT6+Q8TDW0); whole-cell patch clamp; HCT116 LRRC8-/- expressing LRRC8A/C): ~1
C=CC(=O)N1CCC[C@@H](n2nc(-c3ccc(Oc4ccccc4)cc3)c3c(N)ncnc32)C1  remaining activity (Fibroblast growth factor receptor 1 (FGFR1, Homo sapiens, UniProt P11362); 10 µM): 64.1%
O=c1nc(SCc2cc(F)cc(C(F)(F)F)c2)nc(SCc2nc3ccccc3[nH]2)[nH]1  mean decatenated DNA (TOP2A; decatenation; 31.25 µM): 51.2%
O=C(O)c1ccc(O)cc1  current density (BEST2; whole-cell patch clamp; HEK293 transiently expressing channel; concentration not given, membrane potential 20 mV): 30.2 pA/pF and 38.6 pA/pF and 42.3 pA/pF and 52.5 pA/pF and 23.5 pA/pF and 20.7 pA/pF and 39.5 pA/pF
O=C(COP(=O)(O)O)[C@@H](O)[C@H](O)[C@H](O)COP(=O)(O)O  thermal stability ratio (Aminopeptidase B (Homo sapiens, UniProt Q9H4A4); thermal proteome profiling, refers to: RNPEP; HepG2 cell lysate; concentration not given, 57 over 37 °C, mean; reference: compound over control): 0.425
O=C(O)C1=CCNCC1  current density (BEST2; whole-cell patch clamp; HEK293 transiently expressing channel; concentration not given, membrane potential -80 mV): -141 pA/pF and -400 pA/pF and -159 pA/pF and -186 pA/pF and -203 pA/pF
O=C1NC(=O)/C(=C/c2ccc(OCCNc3nc4c(cnn4C4CCCC4)c(=O)[nH]3)c(F)c2)S1  selectivity ratio (PDE2A; reference: PDE2A over PDE9): 53 fold
CCc1c(C)c2cc3nc(cc4nc(cc5c(CC)c(C)c(cc1[nH]2)n5C)C(C)=C4CCC(=O)O)C(CCC(=O)O)=C3C  binding (T2, G-quadruplex RNA (Caenorhabditis elegans); X-ray crystallography): binds
O=C(O)c1ccc(Nc2ncc3c(n2)-c2ccc(Cl)cc2C(c2c(F)cccc2F)=NC3)cc1  remaining activity (ErbB4(h); kinase activity; 1 µM): 74%
Cc1ccc(NC(=O)/C=C/c2cccs2)cc1  IC50 (Neuronal acetylcholine receptor subunit alpha-7 (Chrna7, Rattus norvegicus, UniProt Q05941); ion current, antagonist; holding potential -80 mV, added: acetylcholine 30 µM): inactive
COc1ccc2c3c([nH]c2c1)[C@H](CC(C)C)N1C(=O)[C@H](CC(=O)NC(C)C)NC(=O)[C@@H]1C3  efflux (Broad substrate specificity ATP-binding cassette transporter ABCG2 (Mus musculus, UniProt Q7TMS5); inhibitor, refers to: protoporphyrin IX; Fech-mutant mice, red blood cells; 10 µM, 3 h): 6.4% and 6.5% and 10.8% and 10.5% and 10.9%
c1ccc(CCCCCOCCc2ccc3c(c2)CCO3)cc1  Emax (ATP2A2; ATPase Vmax increase, activator; pig microsomes; 0.1 to 50 µM; reference: vehicle): ~50%
COC(=O)C1CCN(C(=O)c2ccc(N(Cc3ccccc3)Cc3cnc4nc(N)nc(N)c4n3)cc2)CC1  partition index (Pteridine reductase 1 (Leishmania major, UniProt Q01782); hDHFR weight 10; reference: LmPTR1, LmDHFR over hDHFR, 1.0 selective, 0.0 non-selective): 1

Repeated from above:
O=c1cc(-c2ccc(OS(=O)(=O)[O-])cc2)oc2cc(OS(=O)(=O)[O-])cc(OCc3cccc(COc4cc(OS(=O)(=O)[O-])cc5oc(-c6ccc(OS(=O)(=O)[O-])cc6)cc(=O)c45)n3)c12.[Na+].[Na+].[Na+].[Na+]  Hill slope (Neutrophil elastase (ELANE, Homo sapiens, UniProt P08246); enzyme activity, inhibitor; added: chromogenic substrate): 1.7
CC(=O)/N=c1/sc(S(N)(=O)=O)nn1C  intrinsic binding TΔS (Carbonic anhydrase 4 (CA4, Homo sapiens, UniProt P22748); ITC; concentration not given, 25 °C): 13 kJ/mol
CCOCc1nc(O)c(-c2nnc(Cc3ccc(Cl)cn3)o2)c(O)c1-c1c(OC)cccc1OC  Emax (Apelin receptor (APLNR, Homo sapiens, UniProt P35414); Gαi3 activation, agonist, BRET biosensor; HEK293): 115 ± 18%
CC1CCCN(C(=O)c2cc3ncccn3n2)C1 (centres unmarked)  fold enrichment (Histone-lysine N-methyltransferase SETDB1, triple tudor domain (SETDB1, Homo sapiens, UniProt Q15047); binding, affinity selection mass spectrometry; reference: other proteins in batch): 0.596
O=c1nc(SCc2cc(F)cc(C(F)(F)F)c2)nc(SCc2ccc3ccccc3n2)[nH]1  decatenated DNA (TOP2A; decatenation; 7.8 µM, replicate 1): 100%
c1ccc(CCCCCOCCc2ccc3[nH]cnc3c2)cc1  concentration of maximal activation (ATP2A2; ATPase activity): 10 µM
C[C@@H](O)[C@H](NC(=O)[C@H](Cc1ccc(O)cc1)NC(=O)[C@H](Cc1ccc(O)cc1)NC(=O)[C@H](CO)NC(=O)[C@H](CCCNC(=N)N)NC(=O)[C@H](Cc1c[nH]cn1)NC(=O)[C@@H](N)Cc1c[nH]c2ccccc12)C(=O)N[C@@H](Cc1c[nH]c2ccccc12)C(=O)N[C@@H](CC(N)=O)C(=O)NCCCC[C@H](NC(=O)[C@H](CCCCNC(=O)[C@H](CC(N)=O)NC(=O)[C@H](Cc1c[nH]c2ccccc12)NC(=O)[C@@H](NC(=O)[C@H](Cc1ccc(O)cc1)NC(=O)[C@H](Cc1ccc(O)cc1)NC(=O)[C@H](CO)NC(=O)[C@H](CCCNC(=N)N)NC(=O)[C@H](Cc1c[nH]cn1)NC(=O)[C@@H](N)Cc1c[nH]c2ccccc12)[C@@H](C)O)NC(=O)[C@H](CC(N)=O)NC(=O)[C@H](Cc1c[nH]c2ccccc12)NC(=O)[C@@H](NC(=O)[C@H](Cc1ccc(O)cc1)NC(=O)[C@H](Cc1ccc(O)cc1)NC(=O)[C@H](CO)NC(=O)[C@H](CCCNC(=N)N)NC(=O)[C@H](Cc1c[nH]cn1)NC(=O)[C@@H](N)Cc1c[nH]c2ccccc12)[C@@H](C)O)C(=O)N[C@@H](CCCCN)C(=O)N[C@@H](CCCCN)C(N)=O  fold reduction of blocking (Programmed cell death 1 ligand 1, with PD-1 (CD274, Homo sapiens, UniProt Q9NZQ7); PD-1 binding, inhibitor, competitive ELISA; 2.5 µM; reference: PBS over 2% BSA): 1.4 fold
